Assay results gathered from unrelated publications.
A part holds a random share of what one study measured. Substitutions count along the parent as printed.

Sample 1 — technique: RNA Bind-n-Seq; molecule type: RNA; sample: in vitro; tested at: 365 nM; reference: no-protein control; direction: higher = stronger binding
Target: RNA binding protein fox-1 homolog 2, RRM domain, GST-SBP tag (RBFOX2, Homo sapiens, UniProt O43251-10, residues 100-194)
Setting: natural RNA segment, single round, ends assumed
Constant ends, left off below: GGGAGUUCUACAGUCCGACGAUC … UGGAAUUCUCGGGUGCCAA
Residues (chain): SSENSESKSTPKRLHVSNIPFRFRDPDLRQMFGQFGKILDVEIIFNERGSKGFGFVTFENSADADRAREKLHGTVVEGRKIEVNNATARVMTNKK
Oligonucleotide | RBNS enrichment (R)
UUCUCCACUUUUAUAAAGCCAAGCCUUUCCCCAGAAUAGUAUUAACUCCUGGUGCUUUGUACUACUGGUUCAGCGGCCUCGGGCUUCUUUUCUAUAUUAAUAAAGAAGAG | 0.5
UAACUACUUCUCAUGAACACUACCCAAGGAGGAAGCCUGCACCUGGGAAGUGUGCAGUGUGAGCUCUGCCCUCCUGUUAAGUUCUCCAGCUCUAGACAUGUCUCUUGGUG | 1.23
AGCUAGAACUCAGGGCGCUGAAUACUAAGCAAGCAUUCUUCCGGGAGCCAUAUUCGCAGUCUUCGUUUGUCAGUCAGCUGGGUGACCUUGAAUAAGCUGCUGCUUACCCC | 0.25
UCCAGCCCUCAAAGUAGUCUCUGUAAAUCGCUGGGAUAGUAUUCAUAUUGUGUCAUCUCAGUGUUAUUUUUAAGUGUUCUGAGUUGCCUAAGUAGAACACUCUCUGAAUC | 0.514
GCUGGGAAUUUUCUGCCAUGCAGGCAAGACCAUCAGCACCGAGAACCCCAAACCUGUUUUGUACUUAGAGACUGGCUUUGGUCAGUAGUUCACUGUGGAGACAAUGACAG | 0.372
AUUCACAUUGCUGCUCACAAAACAGAACUCGGUGACUUUGUUUUGAUAUAGUUUUGUGGACCAUCUCAAAUUAAAACUAUUUUCUGUAAAAAAUCUAUAGCCAGGAGUUU | 0.641
CAAAGGUUGGCAGAUAGAGGCUGUUCCCAGGCCAGUGAGCUUUACUUGCAGUGUAAAAGGAGGAAAGGGGUGGAAAAAACCGAAUUUCUGCAUUUAACUACAAAAAAAGU | 0.353
AGUAUGUCAUCCGUUAUAGUUUCCCCAUGCUUUCAGCGCAUGGCCAUGAGAUUUUUACAUGUGCAUAAGUAUUUAGCCAAUACACAUUUUGCUGACUUCUUUAACCAUUU | 0.326
UGUGACAUAUUUAUUCCUAGUUCCAUACCUUUGCACAUGCCCUACUCUCCACUAAUUAUACUUAAAAGUCCAAAAAUUUUUUCUUUAGUAACAGACUUAGGUACUGCUAA | 0.741
UGCAGAAUAAUUCAAUUGAAUAUCCAUCACUUAAAUACAGUGACAGGACAGCAACUUCAGGGAUCUGUAAAGAUCAUUUAAAUGGAGUGCUCAUCUCAUUGAGGAGCAGA | 0.268
ACAGAAUAACAAUCUUAUUUUCUAUUUGAUAACUAUGGUAUCAUAUUGGGUUACUGUAUAAGGAAAAUGGCAGGGGAGUUGUGGGAAGCUUGUCUUUACAAAAUAUAAUU | 0.678
UGUCUGUUCACAGCAGUAAAAACUUAACUAAGACACAUACUGCUCUGAAAAUAAAAUAACUUUCUAUAAAUGCUUGCUCUCUGGUUCAUUCUAUUUAGAUCUAUCUAUAU | 0.678

Sample 2 — technique: DHFR PCA, deep sequencing; sample: yeast; added: (+)-ABA 2500 µM; reference: wild-type fitted maximum; direction: higher = stronger binding
Target: ABI1, truncated, D143A, DHFR fusion (Arabidopsis thaliana)
Setting: methotrexate growth selection, single substitutions
Starting sequence: PYL1, truncated, DHFR fusion (Arabidopsis thaliana); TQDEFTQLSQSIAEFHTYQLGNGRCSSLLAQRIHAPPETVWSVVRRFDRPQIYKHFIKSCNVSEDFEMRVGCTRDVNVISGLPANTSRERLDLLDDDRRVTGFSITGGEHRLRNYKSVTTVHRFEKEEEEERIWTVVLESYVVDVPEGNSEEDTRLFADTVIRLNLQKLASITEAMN; partner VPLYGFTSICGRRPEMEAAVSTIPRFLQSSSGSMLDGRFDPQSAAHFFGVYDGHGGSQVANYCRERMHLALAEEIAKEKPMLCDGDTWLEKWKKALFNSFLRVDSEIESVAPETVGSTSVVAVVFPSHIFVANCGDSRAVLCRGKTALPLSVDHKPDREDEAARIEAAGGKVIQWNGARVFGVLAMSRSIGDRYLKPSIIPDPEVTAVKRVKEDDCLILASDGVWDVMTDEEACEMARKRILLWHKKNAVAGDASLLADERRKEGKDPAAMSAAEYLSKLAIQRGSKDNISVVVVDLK
Variant | relative binding score
Q19H | 97.8%
L169S | -5.86%
D97S | 104%
S9I | 94.8%
I79D | 82.7%
E14K | 79.2%
M176G | 103%
V62S | 88.2%
E38P | 88.8%
Q51L | 84.7%
L138G | 18.3%
A158Q | 37.4%
R98G | 96.2%

Sample 3 — technique: Sort-seq; measured: YFP reporter; sample: E. coli; setting: PhoQ-PhoP variant library; added: 10 µM Mg2+; reference: high Mg2+ state; direction: higher = stronger signaling
Substance: PhoQ, residues 284 288 289 292 302 303 SLGVVW
target | fold induction
PhoP, residues 12 14 15 18 19 HHYTI (Escherichia coli, UniProt P23836) | 9.98
PhoP, residues 12 14 15 18 19 SFCSL (Escherichia coli, UniProt P23836) | 29.4
PhoP, residues 12 14 15 18 19 AYFRS (Escherichia coli, UniProt P23836) | 29.7

Sample 4 — target: FOSL1, bZIP domain (human); technique: DHFR protein complementation; sample: yeast; reference: wild-type JUN-FOS pair; direction: higher = stronger binding
Setting: single substitutions, most at no-binding floor
Starting sequence: JUN, bZIP domain (human); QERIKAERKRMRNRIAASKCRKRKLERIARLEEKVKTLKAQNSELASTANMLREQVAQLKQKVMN; partner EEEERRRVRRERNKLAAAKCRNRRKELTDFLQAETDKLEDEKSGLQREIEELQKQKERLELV
Variant | binding fitness
S43Q | -0.311 natural log
M51S | -0.417 natural log
L38C | -1.45 natural log
E32I | -0.735 natural log
T37K | -0.37 natural log
E54M | -0.674 natural log
L38T | -1.18 natural log
A49H | -1.26 natural log
A46Y | -0.633 natural log
E44K | -0.391 natural log
S47A | -0.219 natural log
Q41S | -1.49 natural log
A46S | -0.488 natural log
S47N | -0.347 natural log
K36P | -1.45 natural log
T37V | -0.386 natural log
Q41W | -1.47 natural log

Sample 5 — technique: competition protein-binding microarray; molecule type: double-stranded DNA, one strand shown; sample: in vitro; tested at: 2 µM; added: Pho4 competitor, 0.05 µM; direction: higher = stronger binding; constant ends, left off below: … GTCTTGATTCGCTTGACGCTGCTG
Target: Centromere-binding protein 1, full length, His-tagged (CBF1, Saccharomyces cerevisiae, UniProt P17106, residues 1-351)
Chain of UniProt P17106 (whole entry, looked up): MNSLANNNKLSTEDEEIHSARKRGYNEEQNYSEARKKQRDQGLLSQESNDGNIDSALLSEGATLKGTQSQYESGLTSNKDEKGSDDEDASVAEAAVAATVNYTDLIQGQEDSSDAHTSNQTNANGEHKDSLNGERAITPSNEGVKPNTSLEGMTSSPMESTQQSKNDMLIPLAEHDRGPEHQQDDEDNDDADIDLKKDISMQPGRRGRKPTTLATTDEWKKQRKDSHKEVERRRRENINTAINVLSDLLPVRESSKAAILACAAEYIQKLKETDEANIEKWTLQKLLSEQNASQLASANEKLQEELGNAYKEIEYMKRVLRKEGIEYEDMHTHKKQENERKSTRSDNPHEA
Setting: whole 60-bp probe, lowest competitor level
Oligonucleotide | fluorescence intensity [a.u.]
TTGTTGCAGTAATATTATGTGTCAAACCAGCCTGGC | 78.7
CATACCCAACCTTGCGATGTGGGTGAAGATATTTGT | 71.6
CGTCCTAGTGATTGGAGGGTGGGTGCCATGAGGAAG | 89.8
CGGGGTTAAGTTTGCTATGTGGGTGGCTTGCAGCAG | 74.2
AAATTACTAAGTTGGTACGTGGGTGACGCCGTATGA | 68.2
GACACTTTTACATACGGCGTGCGATGCTGGTATCCT | 72.6
AATTTAACGTCGTATCACCTGCCATAACCGAGCAAG | 166
CGGGGTTAAGTTTGGATGGTGGGTGGCTTGCAGCAG | 47.8
CTTCTGTAAATTTGCGATGTGGGTGGACGCGCCCCG | 69.7
TTCAATGCCAACAATAGCGTGCTTTCTTGTGAGTTT | 75.3
CTAACGAAGGTTTGTACGGTGGGTGACAAGCCAAGT | 65.5
CCGTCGCCACAGAAGCGCGTGGACGCAGGATCGCGC | 51.5
TGCGCAACAACTTTTCACGTGGATTTATGTCTAGAA | 739
AGAGAGGCTTTGAAACATGTGATTGCTGTTCGCGAT | 580
CTTTCCCGATCTTGCCATGTGGGTGTAGCACATTTG | 89.7
ATCAGTAGACATGGACACGTGCCAGAAGTCATCAAA | 2720
GATAGTAACTCGAGTCACGTGCTTTCTAACCATCAA | 10500
CTTTCCCGATCTTGCGCGGTGGGTGTAGCACATTTG | 68.2
CAAACATAAAAGTCGTTCGTGATGGTGAGTTACTTA | 84.7
ATCACCCCGGTCCCGCACGTGTTCCTGTGCTCCCCT | 713
AAATTACTAAGTTGTCACACGACTTACCCCGTATGA | 140
TACATATAACGTATACGTTAGAAAAATTTGAATACA | 87
AAGTTCATATATTTGCACGTGCTGTTAGCTCTTTTC | 2310
TTTCATCACTATTTGCACGCTCTTTCCAAAGCTCCT | 80.8
AAAGCGGTAATTTGTCCCGTGGGTGCAGATATCTAT | 108

Sample 6 — target: CCNB1, cyclin fold, Cln2 fusion (human); technique: yeast growth competition, sequencing; sample: yeast; setting: weak parent motif; reference: not given; direction: higher = stronger binding
Starting sequence: WEE1 docking peptide (human); HKTFRKLRLFDTP
Variant | normalised enrichment score
HKLFRKLRLFDTP [T3L] | 0.0708
HKTFRKLRLFDTM [P13M] | 1.67
HKTFRKLRLPDTP [F10P] | 1.23
HKTFRKLRLFDTH [P13H] | 0.133
HSTFRKLRLFDTP [K2S] | 0.301
HKTFTKLRLFDTP [R5T] | -0.139
HKTFRFLRLFDTP [K6F] | -1.51
GKTFRKLRLFDTP [H1G] | 0.364
HKTLRKLRLFDTP [F4L] | 0.797
HKTHRKLRLFDTP [F4H] | 1.09
HKTFFKLRLFDTP [R5F] | -0.209
HKDFRKLRLFDTP [T3D] | -0.15
CKTFRKLRLFDTP [H1C] | 0.644
TKTFRKLRLFDTP [H1T] | 1.26
HKTSRKLRLFDTP [F4S] | 0.736
WKTFRKLRLFDTP [H1W] | 1.21
HKTFRKLRLDDTP [F10D] | -0.0306
HKTFRKLRLFDTE [P13E] | 0.386
HKTFRKLRLLDTP [F10L] | 0.243
HKTFEKLRLFDTP [R5E] | 1.88
HKTFRKLRLMDTP [F10M] | 0.49
HKRFRKLRLFDTP [T3R] | 0.627

Sample 7 — technique: universal PBM; molecule type: double-stranded DNA, one strand shown; sample: in vitro; tested at: 600 nM; direction: higher = stronger binding
Target: Sal-like protein 4, full length isoform A (SALL4, Homo sapiens, UniProt Q9UJQ4, residues 1-1053)
Chain of UniProt Q9UJQ4 (whole entry, looked up): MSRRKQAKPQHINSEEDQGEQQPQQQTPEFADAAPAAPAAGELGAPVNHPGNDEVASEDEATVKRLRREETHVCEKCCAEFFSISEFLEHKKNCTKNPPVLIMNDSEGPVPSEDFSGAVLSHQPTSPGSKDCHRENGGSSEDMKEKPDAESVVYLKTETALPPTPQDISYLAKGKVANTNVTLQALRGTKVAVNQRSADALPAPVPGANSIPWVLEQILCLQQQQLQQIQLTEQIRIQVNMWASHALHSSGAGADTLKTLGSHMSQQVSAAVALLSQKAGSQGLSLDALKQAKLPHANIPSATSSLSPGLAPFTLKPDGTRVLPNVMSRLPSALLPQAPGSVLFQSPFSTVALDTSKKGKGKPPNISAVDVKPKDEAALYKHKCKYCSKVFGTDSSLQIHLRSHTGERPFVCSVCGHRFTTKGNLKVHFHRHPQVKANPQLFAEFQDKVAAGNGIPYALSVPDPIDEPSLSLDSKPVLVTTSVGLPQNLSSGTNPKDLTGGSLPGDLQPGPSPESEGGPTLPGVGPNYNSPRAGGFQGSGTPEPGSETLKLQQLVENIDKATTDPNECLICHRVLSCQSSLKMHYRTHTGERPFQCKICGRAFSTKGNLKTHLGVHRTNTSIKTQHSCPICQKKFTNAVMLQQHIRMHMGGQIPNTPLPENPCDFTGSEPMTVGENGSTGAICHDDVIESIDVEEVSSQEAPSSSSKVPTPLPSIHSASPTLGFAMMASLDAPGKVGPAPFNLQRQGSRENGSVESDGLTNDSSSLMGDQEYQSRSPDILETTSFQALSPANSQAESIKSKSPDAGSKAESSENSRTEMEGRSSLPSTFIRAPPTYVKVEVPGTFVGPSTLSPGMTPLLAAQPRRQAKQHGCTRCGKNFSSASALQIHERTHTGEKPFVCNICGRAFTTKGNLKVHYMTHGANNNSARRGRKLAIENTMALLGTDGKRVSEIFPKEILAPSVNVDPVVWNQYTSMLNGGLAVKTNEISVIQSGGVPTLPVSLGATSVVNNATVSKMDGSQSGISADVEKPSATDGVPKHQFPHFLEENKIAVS
Setting: 8-mer, flanks averaged, mean of replicates
Oligonucleotide | E-score
AACCCTCA | -0.0622
AGTTAGCC | -0.0723
CCTGAAAG | 0.0456
GCGCATCC | -0.254
AACGGAAG | 0.00172
AAACAGAG | 0.0949
CACCGTAC | -0.148
CACGGCAG | -0.191
ACGGCGTG | -0.165
GACGGAAA | 0.0172
CATCCCTC | -0.191
CCTTCTCA | -0.00535
CAAAAATA | 0.371
AGCGTAGC | -0.0502
GCCCCCGA | -0.266
CCGGTTTA | -0.158
TCAAGCCA | 0.00076
AAAATTAA | 0.366
GGCTCAGA | -0.131
GCCAGTCC | -0.288
AGTTTTCG | 0.0789
GACGGTCA | -0.188
CGGGAAGC | -0.142
CGACAGGC | -0.303
GGCGTTGA | -0.171

Excerpt of the above (sample 4):
Variant | binding fitness
M51S | -0.417 natural log
L38C | -1.45 natural log
E32I | -0.735 natural log
T37K | -0.37 natural log
E54M | -0.674 natural log
L38T | -1.18 natural log
A49H | -1.26 natural log
A46Y | -0.633 natural log
E44K | -0.391 natural log
S47A | -0.219 natural log
Q41S | -1.49 natural log
A46S | -0.488 natural log
S47N | -0.347 natural log
K36P | -1.45 natural log
T37V | -0.386 natural log
Q41W | -1.47 natural log
